Results from different studies.
Every numbered part comes from another study and shows a few of its results, in no order. Positions count from the first letter of the parent shown.

Series 1
Target: Phosphate system positive regulatory protein PHO4, full length, GST-tagged (PHO4, Saccharomyces cerevisiae, UniProt P07270, residues 1-312)
Method: competition protein-binding microarray
Molecule type: double-stranded DNA, one strand shown
Medium: in vitro
Concentration: 2 µM
Setting: whole 60-bp probe, lowest competitor level
With: Cbf1 competitor, 0.05 µM
Reading: higher = stronger binding
Constant ends, left off below: … GTCTTGATTCGCTTGACGCTGCTG
Residues (chain): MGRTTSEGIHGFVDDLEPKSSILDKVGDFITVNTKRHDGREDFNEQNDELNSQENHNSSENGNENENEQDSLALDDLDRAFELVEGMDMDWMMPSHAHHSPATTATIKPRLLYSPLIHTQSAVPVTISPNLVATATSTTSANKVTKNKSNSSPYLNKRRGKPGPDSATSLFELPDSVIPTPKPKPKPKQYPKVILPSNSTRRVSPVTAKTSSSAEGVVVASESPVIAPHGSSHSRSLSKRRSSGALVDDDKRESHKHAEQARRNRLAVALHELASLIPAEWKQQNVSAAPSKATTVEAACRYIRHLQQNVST
With `GTCCCCTAAGTTCTTCACGTGTTCCCTTCTCATCGC` the fluorescence intensity was 13500 a.u.
`GTCATCGACCTTGAGCATGTGGTAGACTACATAATG` has a fluorescence intensity of 13100 a.u.
The fluorescence intensity of `CTTTCCCGATCTTGGCGCGTGGGTGTAGCACATTTG` is reported as 11700 a.u.
For `TCTTAAAGTGTTCGGCACGCAAGATACCACCTAGGG`, the fluorescence intensity was 6100 a.u.
For `TGCGCAACAACTTGCGCCGTGGGTGTATGTCTAGAA`, the fluorescence intensity was 5450 a.u.
`CGTCCTAGTGATTGTCTGGTGGGTGCCATGAGGAAG` gave a fluorescence intensity of 6150 a.u.
`TTAAAAATAGACTATTCGACAACTTTCCTACTGCTA` gave a fluorescence intensity of 2540 a.u.
With `CCATTTCTTCTTCGTCACACGTTAAGCTTGCCAGGA` the fluorescence intensity was 6860 a.u.
For `GAAACTCCAAGACGGTACGTGAGATTTTGGAGAAGA`, the fluorescence intensity was 3750 a.u.
The fluorescence intensity of `CTTTCCCGATCTTGCGATGTGGGTGTAGCACATTTG` is reported as 5240 a.u.
`TGTAATTAGTTTCGTCACGCTTACATTCGCGCCCTC` gave a fluorescence intensity of 6510 a.u.
The fluorescence intensity of `CACCGAATTTCCTGGCACGATCGTTGTTACCAGCTG` is reported as 8340 a.u.
For `ATGAAAAAGATTCACCACGTTTCTTTTGTTTCGATA`, the fluorescence intensity was 14200 a.u.
With `CTTTCCCGATCTTTTCACGTGCCCTTAGCACATTTG` the fluorescence intensity was 13700 a.u.
`TTGAGCTTATAAAAGCACGTGACGGCAATTCACCCC` gave a fluorescence intensity of 14800 a.u.
With `CTAACGAAGGTTTTTCACGTGCGCTACAAGCCAAGT` the fluorescence intensity was 13100 a.u.
With `AAAGACAGGACTTCGAACGTGTAGGACTTAGACCAG` the fluorescence intensity was 8170 a.u.

Series 2
Target: RNA binding protein fox-1 homolog 2, RRM domain, GST-SBP tag (RBFOX2, Homo sapiens, UniProt O43251-10, residues 100-194)
Method: RNA Bind-n-Seq
Molecule type: RNA
Medium: in vitro
Concentration: 365 nM
Setting: natural RNA segment, single round, ends assumed
Baseline: no-protein control
Reading: higher = stronger binding
Constant ends, left off below: GGGAGUUCUACAGUCCGACGAUC … UGGAAUUCUCGGGUGCCAA
Target sequence (chain): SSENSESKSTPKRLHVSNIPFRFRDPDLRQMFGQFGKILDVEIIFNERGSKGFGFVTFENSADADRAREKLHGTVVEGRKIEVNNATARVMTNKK
For `GCCUGAAGUGCAGCCUUCACCAGGGCAUUGUCUCUGCUGGUGUCAGUGACCCACAUUGAUGAGUGGUCUGAGCAGCUGGUGGGUUACUUUACCCAGUGUGUUCCUGCAUU`, “RBNS enrichment (R)” read 0.397.
`GAAAAUGACUUAGGAAAAAACGUUUCUGAGCAAGCAUUCUGGCCCAUGCACUGGCUGAAGUGGGCAGACUGGAGGCGGCCUCUGCAAGAAAUGGAGUCAGGCGAAGUCCA`: “RBNS enrichment (R)” 1.33.
Under “RBNS enrichment (R)”, `AGGAGGCAGCUGCUGCUCAGACGGAGGGGCCUUCAACACCAUCUAGUUUUCCAGCCCAGGAAGAACACAGGGAAAAACCAGGAAGGGAUGUUCUAGAACCCACACAAGCG` is recorded as 0.294.
For `AAACCAUUUUGCUGUCCCUUUUCCUUUUUUGAUGUUCUUUCACCCUUUUCUGUUUGCUAAGUGAGGAUGAAAAAAUAACACUGUACUGCAAUAAGGGGAGAGUAACCCUG`, “RBNS enrichment (R)” read 1.07.
For `CAAAAAUCAACAAUGCACAACUUACAAAGUGUUCAUUCUAGGGACAAAAUUAAAUAAACAGAAUGUCCCCAGGAGUCAGCAGGUCACAGUCUGGCUUUGUGAUGGUUGAC`, “RBNS enrichment (R)” read 0.449.
`UGUUUUGAAUCUUUGUAAAAAUUGAUAUUCUGUAUAACAGAGUGCCUCUCUGUUACUUUUGGCCUAUGUUGUUAGAAAUAAGAUGCUAUCUUGCAUAGUUAGAAUUAAGC` — result for “RBNS enrichment (R)”: 0.507.
Under “RBNS enrichment (R)”, `UGUGGACUCUUGGCCCAGGAAUCCACAAUAAUAGCUAGUGGUAGAAUUGGGAUGUAGCCUGAUUAUAUAGAUUCCAAGGUAGUCCUCUGUCUAUCCUAAAAGUAGAUUAG` is recorded as 0.458.
`CGCCUCCCCAGCACCUGCCCUCCCAGUCUCCCACCCCGGCCCCAGGCUGGAAGCCCUCCCUCCACUUAAGUUAUUGUUUUAAACCAAAGUUUACAGUGUCUGUUGGUGGC` — result for “RBNS enrichment (R)”: 0.635.

Series 3
Target: CCND1, cyclin fold, Cln2 fusion (human)
Method: yeast growth competition, sequencing
Medium: yeast
Setting: weak parent motif
Baseline: not given
Reading: higher = stronger binding
Starting sequence: DNAH7 docking peptide (human); HELFQRLDFDNDG
`R6A` — result for “normalised enrichment score”: 0.475.
`Q5A`: “normalised enrichment score” 0.543.
`D12A` — result for “normalised enrichment score”: 0.479.
Under “normalised enrichment score”, `G13A` is recorded as 0.246.
`E2A` — result for “normalised enrichment score”: 0.396.
`D8A` — result for “normalised enrichment score”: 0.302.

Series 4
Target: CEP164, C-terminal peptide (human)
Method: DHFR complementation, deep sequencing
Medium: yeast
Setting: single substitutions, model-inferred values
Baseline: wild type
Reading: higher = weaker binding
Starting sequence: PDZK1, PDZ domain 2 (human); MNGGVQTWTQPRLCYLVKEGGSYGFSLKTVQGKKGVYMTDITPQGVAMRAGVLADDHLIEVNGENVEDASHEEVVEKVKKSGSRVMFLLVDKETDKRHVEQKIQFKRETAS; partner HNRVKVYRF
`P11L` — result for “binding free energy change”: 0.512 kcal/mol.
For `K77A`, “binding free energy change” read 0.0325 kcal/mol.
Under “binding free energy change”, `G45K` is recorded as 1.01 kcal/mol.
Under “binding free energy change”, `W8T` is recorded as -0.0114 kcal/mol.
`E19Y` — result for “binding free energy change”: 0.334 kcal/mol.
`V30R` — result for “binding free energy change”: 0.299 kcal/mol.
For `A47R`, “binding free energy change” read 0.657 kcal/mol.
Under “binding free energy change”, `M1W` is recorded as -0.148 kcal/mol.
Under “binding free energy change”, `S81P` is recorded as 0.51 kcal/mol.

Mixed results
With `PhoQ, residues 284 288 289 292 302 303 TAVSDG` the fold induction was 4.84 (PhoP, residues 12 14 15 18 19 LQHIR (Escherichia coli, UniProt P23836); Sort-seq, measured: YFP reporter; E. coli; PhoQ-PhoP variant library, with: 10 µM Mg2+; baseline: high Mg2+ state, higher = stronger signaling).

A few entries again (series 4):
Under “binding free energy change”, `G45K` is recorded as 1.01 kcal/mol.
`P11L` — result for “binding free energy change”: 0.512 kcal/mol.
Under “binding free energy change”, `M1W` is recorded as -0.148 kcal/mol.
Under “binding free energy change”, `S81P` is recorded as 0.51 kcal/mol.
`V30R` — result for “binding free energy change”: 0.299 kcal/mol.
For `K77A`, “binding free energy change” read 0.0325 kcal/mol.
